Published values collected from several papers.
Each line is one published result; not all experiments were run side by side. Numbers after ± are the reported error.
Sequence of UniProt P21397 (whole entry, looked up): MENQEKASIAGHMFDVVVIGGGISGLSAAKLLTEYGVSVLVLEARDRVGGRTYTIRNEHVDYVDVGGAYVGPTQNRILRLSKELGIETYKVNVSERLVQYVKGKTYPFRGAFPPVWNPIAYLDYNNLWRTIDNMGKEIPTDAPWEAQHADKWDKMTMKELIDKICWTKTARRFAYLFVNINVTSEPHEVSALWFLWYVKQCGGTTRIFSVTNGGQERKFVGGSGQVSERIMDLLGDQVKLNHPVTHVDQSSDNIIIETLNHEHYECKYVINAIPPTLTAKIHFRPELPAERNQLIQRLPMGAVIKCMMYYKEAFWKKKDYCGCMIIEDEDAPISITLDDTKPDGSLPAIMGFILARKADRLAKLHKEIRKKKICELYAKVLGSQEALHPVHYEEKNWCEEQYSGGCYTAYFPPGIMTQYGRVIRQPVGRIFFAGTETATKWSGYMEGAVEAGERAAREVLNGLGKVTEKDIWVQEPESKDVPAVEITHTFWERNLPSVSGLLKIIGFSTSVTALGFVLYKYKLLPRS

Cc1cc(-c2ccc(NC(=O)[C@H](CCCCNC(=O)CCOCCOCCC(=O)N[C@H](Cc3ccccc3)C(=O)N[C@H]3CSSC[C@@H](C(=O)N[C@H](C(=O)O)[C@@H](C)O)NC(=O)[C@H]([C@@H](C)O)NC(=O)[C@H](CCCCN)NC(=O)[C@@H](Cc4c[nH]c5ccccc45)NC(=O)[C@H](Cc4ccc(O)cc4)NC3=O)NC(=O)CN3CCN(CC(=O)O)CCN(CC(=O)O)CCN(CC(=O)O)CC3)c(C)c2)ccc1N=Nc1ccc2c(S(=O)(=O)O)cc(S(=O)(=O)O)c(N)c2c1O [lutetium-177 labelled]  patients with toxicity (refers to: grade 3/4 haematologic toxicity; patients with metastatic neuroendocrine tumours; dose not given): 25%
N=C(N)NCCC[C@H](NC(=O)[C@H](CCCNC(=N)N)NC(=O)[C@H](CCCNC(=N)N)NC(=O)[C@H](CCCNC(=N)N)NC(=O)[C@H](CCCNC(=N)N)NC(=O)[C@H](CCCNC(=N)N)NC(=O)[C@H](CCCNC(=N)N)NC(=O)[C@H](CCCNC(=N)N)NC(=O)CN1CCN(CC(=O)O)CCN(CC(=O)O)CCN(CC(=O)O)CC1)C(=O)O  Gd retention (NIH/3T3; 0.10 mM, 4 h; relative to: uptake): 15%
C=C1CC[C@H](OCCCNC(=O)CCOCCOCCOCCOCCOCCOCCOCCOCCOCCOCCOCCOCCOCCOCCOCCOCCOCCOCCOCCOCCOCCOCCOCCOCCOCCOCCOCCOCCOCCOCCOCCOCCOCCOCCOCCOCCNC(=O)CCN2C(=O)CC(SC[C@H](NC(=O)[C@H](Cc3ccccc3)NC(=O)[C@H](CC(N)=O)NC(=O)[C@H](Cc3c[nH]cn3)NC(=O)[C@@H](NC(=O)[C@H](CC(=O)O)NC(=O)[C@H](CCC(N)=O)NC(=O)[C@H](CC(C)C)NC(=O)[C@H](CCCCN)NC(=O)[C@H](CCCCN)NC(=O)[C@H](CCCNC(=N)N)NC(=O)[C@H](CC(C)C)NC(=O)[C@H](Cc3c[nH]c4ccccc34)NC(=O)[C@H](CCC(=O)O)NC(=O)[C@@H](NC(=O)[C@H](CCCNC(=N)N)NC(=O)[C@H](CCC(=O)O)NC(=O)[C@H](CCSC)NC(=O)[C@H](CO)NC(=O)[C@H](CC(N)=O)NC(=O)[C@H](CC(C)C)NC(=O)[C@H](Cc3c[nH]cn3)NC(=O)[C@H](CCCCN)NC(=O)CNC(=O)[C@H](CC(C)C)NC(=O)[C@H](CC(N)=O)NC(=O)[C@H](Cc3c[nH]cn3)NC(=O)[C@H](CCSC)NC(=O)[C@H](CC(C)C)NC(=O)[C@H](CCC(N)=O)NC(=O)[C@@H](NC(=O)[C@H](CCC(=O)O)NC(=O)[C@H](CO)NC(=O)[C@@H](NC(=O)[C@@H](N)CO)C(C)C)[C@@H](C)CC)C(C)C)C(C)C)C(N)=O)C2=O)C/C1=C/C=C1\CCC[C@]2(C)[C@@H]([C@H](C)CCCC(C)(C)O)CC[C@@H]12 (stereo partly drawn)  dose-normalised AUC (cynomolgus monkey; sc, 7 µg/kg every other day, 21 days; relative to: 0.7 µg/kg dose): 0.28
N=C(N)NCCC[C@@H]1NC(=O)[C@H](CCCCNC(=O)CNC(=O)CNC(=O)CNC(=O)CC[C@H](NC(=O)CNC(=O)CNC(=O)CNC(=O)CC[C@H](NC(=O)CN2CCN(CC(=O)O)CCN(CC(=O)O)CCN(CC(=O)O)CC2)C(=O)NCC(=O)NCC(=O)NCC(=O)N[C@@H](CCC(=O)NCC(=O)NCC(=O)NCC(=O)NCCCC[C@@H]2NC(=O)[C@@H](Cc3ccccc3)NC(=O)[C@H](CC(=O)O)NC(=O)CNC(=O)[C@H](CCCNC(=N)N)NC2=O)C(=O)NCC(=O)NCC(=O)NCC(=O)NCCCC[C@@H]2NC(=O)[C@@H](Cc3ccccc3)NC(=O)[C@H](CC(=O)O)NC(=O)CNC(=O)[C@H](CCCNC(=N)N)NC2=O)C(=O)NCC(=O)NCC(=O)NCC(=O)NCCCC[C@@H]2NC(=O)[C@@H](Cc3ccccc3)NC(=O)[C@H](CC(=O)O)NC(=O)CNC(=O)[C@H](CCCNC(=N)N)NC2=O)NC(=O)[C@@H](Cc2ccccc2)NC(=O)[C@H](CC(=O)O)NC(=O)CNC1=O [indium-111 labelled]  tissue uptake (female athymic nu/nu mice, blood; intravenous, 0.5 h): 0.97 ± 0.1 %ID/g
CC(C)C[C@@H](NC(=O)[C@@H](CC(C)C)NC(=O)[C@@H](CC(=O)O)NC(=O)[C@@H](CC(C)C)NC(=O)[C@@H](CC(C)C)NC(=O)[C@@H](CC(C)C)NC(=O)[C@H](NC(=O)[C@@H](CC(=O)O)NC(=O)[C@H](NC(=O)[C@H]1CCCN1C(=O)[C@@H](Cc1ccccc1)NC(=O)[C@@H](CC(C)C)NC(=O)[C@@H](CC(C)C)NC(=O)[C@@H](CC(=O)O)NC(=O)[C@@H](CC(C)C)NC(=O)[C@@H](Cc1ccc(O)cc1)NC(=O)[C@@H](C)NC(=O)[C@@H](CCCNC(=N)N)NC(=O)[C@@H](Cc1c[nH]c2ccccc12)NC(=O)[C@H]1CCCN1C(=O)[C@@H](CC(N)=O)NC(=O)[C@@H](CCC(N)=O)NC(=O)[C@@H](CC(=O)O)NC(=O)[C@@H](CC(=O)O)NC(=O)[C@@H](CSC1CC(=O)N(CCNC(=O)CN2CCN(CC(=O)O)CCN(CC(=O)O)CC2)C1=O)NC(=O)[C@@H](C)N)[C@H](C)O)[C@H](C)O)C(=O)N[C@H](Cc1c[nH]c2ccccc12)C(=O)O (stereo partly drawn) [fluorine-18 labelled]  tumour-to-bone ratio (male nude mice, PC-3 xenograft; intravenous, 4 h; relative to: tumour over bone): 3.2 ± 0.7
CCCC[C@H](NC(=O)CNC(=O)CNC(=O)CN1CCN(CC(=O)O)CCN(CC(=O)O)CC1)C(=O)N[C@H]1CC(=O)NCCCC[C@@H](C(N)=O)NC(=O)[C@H](Cc2c[nH]c3ccccc23)NC(=O)[C@H](CCCNC(=N)N)NC(=O)[C@@H](Cc2ccccc2)NC(=O)[C@H](Cc2c[nH]cn2)NC1=O [technetium-99m labelled]  tissue uptake (C57 mouse, pancreas; iv, 0.037 MBq, 4 h): 0.01 ± 0.01 %ID/g
COc1cc(CNC(=O)C[C@H](C)CCC=C(C)C)ccc1OCc1cn(-c2ccc([N+](=O)[O-])cc2)nn1  growth percent (RXF 393; SRB; 10 µM, 48 h): 90.6%
COC(=O)[C@H](CSSC(C)(C)[C@H](NC(=O)[C@H](CCC(=O)NC[C@H](O)[C@@H](O)[C@H](O)[C@H](O)CO)NC(=O)[C@H](CCC(=O)O)NC(=O)[C@H](CCC(=O)NC[C@H](O)[C@@H](O)[C@H](O)[C@H](O)CO)NC(=O)[C@H](CCC(=O)O)NC(=O)[C@H](CCC(=O)NC[C@H](O)[C@@H](O)[C@H](O)[C@H](O)CO)NC(=O)CC[C@H](NC(=O)c1ccc(NCc2cnc3nc(N)[nH]c(=O)c3n2)cc1)C(=O)O)C(=O)O)NC(=O)CC[C@H](NC(=O)c1ccc(NCc2cnc3nc(N)[nH]c(=N)c3n2)cc1)C(=O)O  AMT release fold change (dog liver cytosol; 1 µM, 1 h, 37 °C, acidic pH; relative to: pH 7.4): ≥ 4 fold
[64Cu+2].c1cnc(CNCc2ccc(CN3CCCN4CCNCCCN(CC4)CC3)cc2)nc1  tissue uptake (CXCR4; NOD/SCID mouse, U87 xenografts, small intestine; 90 min): 2.16 ± 0.24 %ID/g
COc1ccc(CCCN[C@@H]2CCC[C@H]2CN[C@H]2CCC[C@@H]2CNCCCCN[C@@H]2CCC[C@H]2CN)cc1  Ki (Amine oxidase [flavin-containing] A (MAOA, Homo sapiens, UniProt P21397); enzyme activity, inhibitor; together with: tyramine 50 µM): > 500 µM
CCC(=O)N(C)c1ccc(Cl)c(Cl)c1  fold activation (CAR3 constitutive androstane receptor, human; reporter gene, agonist; 10 µM; relative to: vehicle): 0.69 fold
N=C(N)NCCC[C@@H]1NC(=O)[C@H](CCCCNC(=O)CNC(=O)CNC(=O)CNC(=O)CC[C@H](NC(=O)CNC(=O)CNC(=O)CNC(=O)CN2CCN(CC(=O)O)CCN(CC(=O)O)CCN(CC(=O)O)CC2)C(=O)NCC(=O)NCC(=O)NCC(=O)NCCCC[C@@H]2NC(=O)[C@@H](Cc3ccccc3)NC(=O)[C@H](CC(=O)O)NC(=O)CNC(=O)[C@H](CCCNC(=N)N)NC2=O)NC(=O)[C@@H](Cc2ccccc2)NC(=O)[C@H](CC(=O)O)NC(=O)CNC1=O [indium-111 labelled]  tissue uptake (female athymic nu/nu mice, liver; intravenous, 24 h): 1.52 ± 0.15 %ID/g
COc1ccc2cc([C@H](C)C(=O)N[C@H](Cc3ccccc3)C(=O)N[C@H](Cc3ccccc3)C(=O)N[C@H](CCCCN)C(=O)N[C@H](Cc3ccc(O)cc3)C(=O)O)ccc2c1  cumulative release (hydrogel 0.8 wt% into PBS; 24 h, pH 7.4, 37 °C): 19.8%
N=C(N)NCCC[C@@H]1NC(=O)[C@H](CCCCNC(=O)CC[C@H](NC(=O)CC[C@H](NC(=O)CN2CCN(CC(=O)O)CCN(CC(=O)O)CCN(CC(=O)O)CC2)C(=O)N[C@@H](CCC(=O)NCCCC[C@@H]2NC(=O)[C@@H](Cc3ccccc3)NC(=O)[C@H](CC(=O)O)NC(=O)CNC(=O)[C@H](CCCNC(=N)N)NC2=O)C(=O)NCCCC[C@@H]2NC(=O)[C@@H](Cc3ccccc3)NC(=O)[C@H](CC(=O)O)NC(=O)CNC(=O)[C@H](CCCNC(=N)N)NC2=O)C(=O)NCCCC[C@@H]2NC(=O)[C@@H](Cc3ccccc3)NC(=O)[C@H](CC(=O)O)NC(=O)CNC(=O)[C@H](CCCNC(=N)N)NC2=O)NC(=O)[C@@H](Cc2ccccc2)NC(=O)[C@H](CC(=O)O)NC(=O)CNC1=O [indium-111 labelled]  tissue uptake (female athymic nu/nu mice, kidney; intravenous, 24 h): 5.11 ± 0.52 %ID/g
CCCC[C@H](NC(=O)CCCCCCCNC(=O)CN1CCN(CC(=O)O)CCN(CC(=O)O)CC1)C(=O)N[C@H]1CC(=O)NCCCC[C@@H](C(N)=O)NC(=O)[C@H](Cc2c[nH]c3ccccc23)NC(=O)[C@H](CCCNC(=N)N)NC(=O)[C@@H](Cc2ccccc2)NC(=O)[C@H](Cc2c[nH]cn2)NC1=O [copper-64 labelled]  tissue uptake (C57 mice, tumor; intravenous, 0.37 MBq, 4 h): 5.47 ± 0.52 %ID/g

Repeated from above:
COc1ccc(CCCN[C@@H]2CCC[C@H]2CN[C@H]2CCC[C@@H]2CNCCCCN[C@@H]2CCC[C@H]2CN)cc1  Ki (Amine oxidase [flavin-containing] A (MAOA, Homo sapiens, UniProt P21397); enzyme activity, inhibitor; together with: tyramine 50 µM): > 500 µM
